Results collected from several papers.
Each numbered part is a random draw from the data of one study; scales do not carry over between parts. Changes are numbered by the printed parent chain.

Set 1
Target: CCND1, cyclin fold, Cln2 fusion (human)
Technique: yeast growth competition, sequencing
Sample: yeast
Setting: weak parent motif
Reference: not given
Direction: higher = stronger binding
Parent: GMNC docking peptide (human); KNAKRNLSSEFAN
| Substitution | normalised enrichment score |
| --- | --- |
| KNAKRNLSSEFFN [A12F] | 0.422 |
| KNAKRKLSSEFAN [N6K] | 0.0659 |
| KNAHRNLSSEFAN [K4H] | -0.0483 |
| KNKKRNLSSEFAN [A3K] | 0.396 |
| KNAKRNLSSEWAN [F11W] | 0.41 |
| KNAKRNLSSEFQN [A12Q] | 0.448 |
| KNCKRNLSSEFAN [A3C] | 0.404 |
| KNAKKNLSSEFAN [R5K] | 0.0737 |
| KNAKRNLKSEFAN [S8K] | 0.234 |

Set 2
Target: Prothrombin, mature alpha-thrombin (F2, Homo sapiens, UniProt P00734)
Technique: aptamer microarray, sandwich
Form: DNA with 2'F-ANA
Sample: in vitro
Concentration: 200 nM
Setting: whole 15-mer aptamer, many near background
Added: Cy3 exosite-II aptamer, 400 nM
Direction: higher = stronger binding
Sequence: GGTTGGTGTGGTTGG
| Modification | mean fluorescence intensity [a.u.] |
| --- | --- |
| 2'F-ANA at 3 5 8 9 12 13 14 15 | 106 |
| 2'F-ANA at 2 4 5 7 9 10 13 15 | 52.5 |
| 2'F-ANA at 1 3 7 9 10 11 13 14 15 | 61.8 |
| 2'F-ANA at 1 3 4 6 7 9 10 12 13 14 | 49.8 |
| 2'F-ANA at 3 7 9 10 12 13 | 708 |
| 2'F-ANA at 3 8 9 10 12 13 14 | 406 |
| 2'F-ANA at 1 2 6 7 8 9 10 12 13 14 15 | 50.3 |
| 2'F-ANA at 1 2 3 5 6 7 9 10 11 | 52.4 |

Set 3
Target: Fragile X messenger ribonucleoprotein 1, C-terminal low-complexity region (Fmr1, Mus musculus, UniProt P35922)
Technique: RNA Bind-n-Seq
Form: RNA
Sample: in vitro
Concentration: 200 nM
Setting: whole 134-nt RNA, ends assumed
Added: 150 mM LiCl
Reference: input library
Direction: higher = stronger binding
All molecules: 7-deaza-guanosine replaces G
Constant ends, left off below: GGGAGUUCUACAGUCCGACGAUC … UGGAAUUCUCGGGUGUCAAGG
| Sequence | log2 enrichment |
| --- | --- |
| CACAGCCAACACGCACCCACACAGACACAGAGGGAAGGGGUUGGGAUGGGGACAGGGUGCACAGCAGGGCGGGGUAGGACCCCAGCCCCU | 1.38 |
| UCUAGAUACAGAUGCACGAUUUGGCCAUGGAUCCGACUACUCUCGCCAACAGAACAGAUUUAAUGACUUUGAUCACCGAGAGAGGGGCAG | -1.56 |
| UCCUGUGCUACACAUCGUAUGUACCGAAUCGGGAAAAAGGGAAAAAAAGGGAAAAAGGGAAAGUAUUAUGUUACGCCGUUCGGAUCUGCA | 0.508 |
| UGGCCCUGGUGGCAUGCGGGGAGGGAGAGGUGGCCUCAUGGAUCGUGGUGGUCCCGGUGGAAUGUUCAGAGGUGGCCGUGGUGGAGACAG | 0.413 |
| UCCUGUGCUACACAUCGUAUGUACCGAAUCGGGCCCCCCGGCCCCCCGGGCCCCCCGGGAAAGUAUUAUGUUACGCCGUUCGGAUCUGCA | 0.749 |
| UCCUGUGCUACACAUCGUAUGUACCGAAUCGGGAAAAAGGGUUUUUGGGUUUUUUUGGGAAAGUAUUAUGUUACGCCGUUCGGAUCUGCA | -2.17 |
| UGGGAGGUGGAUUUUGUUUAUUUUUUUAGCUCAUUUCCAGGGGUGGGAAUUUUUUUUUAAUAUGUGUCAUGAAUAAAAUUGUUUUUGAAA | -0.0406 |
| ACCAUGCAGGUGGGCAUCUUUGGGAAGUGGGGCAAGGGGGGGAUAGGGAGGGGGGUAACACUUUGGGAACACGUGGUCCCAGGUCGUUUC | 1.09 |
| ACCAUGCAGGUGGGCAUCUUUGGGAAGUGGGGCAAGGGGGGGAUAGGGAGGGGGGUAACACUUUGGGAACAGGUGGUCCCAGAAAGUUUC | 0.868 |

Single results of other studies
| Molecule | target | assay | test system | setting | how to read | measurement | result |
| --- | --- | --- | --- | --- | --- | --- | --- |
| PhoQ, residues 284 288 289 292 302 303 AMDMFI | PhoP, residues 12 14 15 18 19 YHFSH (Escherichia coli, UniProt P23836) | Sort-seq, refers to: YFP reporter | E. coli | PhoQ-PhoP variant library, added: 10 µM Mg2+ | reference: high Mg2+ state, higher = stronger signaling | fold induction | 0.759 |

A few entries again (set 3):
| Sequence | log2 enrichment |
| --- | --- |
| UGGCCCUGGUGGCAUGCGGGGAGGGAGAGGUGGCCUCAUGGAUCGUGGUGGUCCCGGUGGAAUGUUCAGAGGUGGCCGUGGUGGAGACAG | 0.413 |
| UCCUGUGCUACACAUCGUAUGUACCGAAUCGGGCCCCCCGGCCCCCCGGGCCCCCCGGGAAAGUAUUAUGUUACGCCGUUCGGAUCUGCA | 0.749 |
